Experimental data of several laboratories.
Compare with care: the assays were run in different laboratories. Several values in a cell are separate wells, animals, samples, runs or records. ± marks the error that the study gave.

[131I-].[Na+] — result for “patients requiring third ablation”: about 1.7% (hyperthyroidism patients; 185 MBq, long-term follow-up).
CCCCC1(CCCC)CN(c2ccccc2)c2cc(SC)c(OCC(=O)N[C@@H](C(=O)NCC(=O)O)c3ccccc3)cc2S(=O)(=O)C1 has a serum HDL-C of 51.3 mg/dL (refers to: HDL cholesterol; human, serum; 20 mg once daily, day 1).
Cc1cn(-c2cc(NC(=O)c3ccc(C)c(Nc4nccc(-c5cccnc5)n4)c3)cc(C(F)(F)F)c2)cn1: “mean difference in change” 0 (refers to: NPI caregiver distress score; human; dose not given, between 12 and 6 months, unit not given; relative to: placebo).
CCCc1nn(C)c2c(=O)[nH]c(-c3cc(S(=O)(=O)N4CCN(C)CC4)ccc3OCC)nc12: “mean serum uric acid” 6.84 mg/dL (human patients on drug, serum or plasma; dose not given, main analysis, matching 1:20; relative to: off-drug patients, 5.94 mg/dL).
CC(C)C1CCC(N2CCC(N3C(=O)C(=O)c4ccccc43)CC2)CC1 (stereo not shown) — result for “urine flow rate”: “increased” (conscious Sprague-Dawley rat; intravenous bolus, 100 nmol/kg).
For CCCCCCCCCC(=O)N[C@@H](Cc1c[nH]c2ccccc12)C(=O)N[C@H](CC(N)=O)C(=O)N[C@@H](CC(=O)O)C(=O)N[C@@H]1C(=O)NCC(=O)N[C@@H](CCCN)C(=O)N[C@@H](CC(=O)O)C(=O)N[C@H](C)C(=O)N[C@@H](CC(=O)O)C(=O)NCC(=O)N[C@H](CO)C(=O)N[C@@H]([C@H](C)CC(=O)O)C(=O)N[C@@H](CC(=O)c2ccccc2N)C(=O)O[C@@H]1C, the maximum fusion was 91 ± 4% (calcein leakage; DOPC/DOPG/CHOL liposomes; concentration not given, with: 40 mM CaCl2).
For C[C@H](NC(=O)c1c(C(F)F)nn(C)c1Oc1cccc(C(F)(F)F)c1)c1ccc(C(=O)O)cc1, “median progression-free survival” read 1.4 months (human, advanced tumours; 250 mg).
C[C@]12CC[C@H](O)C[C@H]1CC[C@@H]1[C@@H]2CC[C@]2(C)[C@@H](c3ccc(=O)oc3)CC[C@]12O has a tumour volume of 25.3 mm3 and 37.4 mm3 and 48.4 mm3 and 56 mm3 and 32.6 mm3 and 28.6 mm3 and 29.1 mm3 (female nude mouse LCC2 xenograft; 1.0 mg/kg, day 5, tamoxifen-resistant).
For O=C1N(Cc2ccccc2Cl)c2ccccc2C12NN=C(c1ccccc1)S2 (stereo not shown), “increase in life span” read 0% (WSU-FSCCL xenograft, mouse; intravenous, 923.8 mg/kg total).
For C[C@H]1O[C@@H](O[C@H]2CC[C@@]3(C)[C@@H](CC[C@]4(C)[C@@H]3C=C[C@]35OC[C@@]6(CCC(C)(C)C[C@H]63)[C@@H](O)C[C@]54C)[C@]2(C)CO)[C@H](O)[C@@H](O[C@@H]2O[C@H](CO)[C@@H](O)[C@H](O)[C@H]2O)[C@H]1O, “body weight change” read 2.3 g and 1.7 g and 1.4 g and 1.3 g and 2.5 g and 1.1 g (Mus musculus, pair-fed, AAV8-TBG-Null vector; oral, high dose, during administration).
CS(=O)(=O)c1ccc(-c2nnc(/C=C/c3nnc(-c4ccc(C#N)cc4)o3)n2-c2ccccc2Cl)nc1 — result for “normalized enrichment score”: 1.84 (RNA-seq GSEA, refers to: HALLMARK_FATTY_ACID_METABOLISM; organoids, small intestinal, Apc Q1405X, mouse; dose not given, 3 days, wild-type organoids; relative to: DMSO, direction not given).
CCN(Cc1nc2c(N)nc3cc(-c4cc[nH]n4)ccc3c2[nH]1)C(C)=O: “median overall survival” 5.2 months (Kaplan-Meier; human advanced solid tumours; dose not given).
CN1CCN(S(=O)(=O)c2cc([N+](=O)[O-])ccc2N(CCOS(C)(=O)=O)CCOS(C)(=O)=O)CC1: “EFS delay (T-C)” over 348 days (NSG mice, sample CI PDX; intraperitoneal, 25 mg/kg weekly x3; relative to: vehicle).
Under serum AST, Cc1nc(Nc2ccc(CC(=O)O)cc2)nc(Nc2ccc(F)c(C(F)(F)F)c2)c1C is recorded as “decreased” (mice, chronic ethanol plus binge; intraperitoneal, 0.3 mg/kg daily, ethanol diet 4 weeks, dosed last two; relative to: vehicle).
The T/C of CC(=O)c1c(C)c2cnc(Nc3ccc(C4CCN(CCS(C)(=O)=O)CC4)cn3)nc2n(C2CCCC2)c1=O is reported as 40% (mouse SW-620 xenograft; oral, 80 mg/kg twice daily, 20 days).
For CCCCCCCCCCCCCCCC(=O)N[C@H]1C[C@@H](O)[C@@H](O)NC(=O)[C@@H]2[C@@H](O)[C@@H](C)CN2C(=O)[C@H]([C@@H](C)O)NC(=O)[C@H]([C@H](O)[C@@H](O)c2ccc(O)cc2)NC(=O)[C@@H]2C[C@@H](O)CN2C(=O)[C@H]([C@@H](C)O)NC1=O, the maximum fusion was 9 ± 3% (calcein leakage; DOPC/CHOL liposomes; concentration not given, with: 20 wt% PEG-8000).
Under “z-scored log2 fold change”, C[N+](C)(C)CCOP(=O)(O)OP(=O)([O-])OC[C@H]1O[C@@H](n2ccc(N)nc2=O)[C@H](O)[C@@H]1O is recorded as 0.0493 (binding, equilibrium dialysis LC-MS; 5 µM, thermostabilized A2AR-BRIL construct; relative to: no-protein control, direction not given).
Under “log2 fold change”, CC[C@H](C)[C@@H]1NC(=O)[C@@H]2CCCN2C(=O)[C@H](CC(C)C)NC(=O)[C@H](CC(C)C)NC(=O)CNC(=O)[C@@H](NC(=O)[C@@H](NC(=O)[C@H](CC(=O)O)NC(=O)CNC(=O)[C@@H](NC(=O)[C@H](C)NC(=O)CNC(=O)[C@H](CCCCN)NC(=O)[C@H](CC(C)C)NC(=O)[C@H](CC(C)C)NC(=O)[C@H](CCCCN)NC(=O)CNC(=O)[C@@H](NC(=O)[C@@H](N)CC(C)C)C(C)C)C(C)C)C(C)C)CSSC[C@@H](C(=O)O)NC1=O is recorded as -0.823 (RNA-seq, refers to: Zfp516 mRNA; mouse traumatic brain injury, frontal cortex and hippocampus; dose not given; relative to: TBI plus compound vs TBI).
CNC(=O)c1c(C)oc2cc(Oc3ccnc4cc(OCCN5CCOCC5)ccc34)ccc12 — result for “patients with vascular response”: 36% (DCE-MRI; patients; dose not given, once daily dosing).

For quick reference, copied from above:
Cc1cn(-c2cc(NC(=O)c3ccc(C)c(Nc4nccc(-c5cccnc5)n4)c3)cc(C(F)(F)F)c2)cn1: “mean difference in change” 0 (refers to: NPI caregiver distress score; human; dose not given, between 12 and 6 months, unit not given; relative to: placebo).
CCCc1nn(C)c2c(=O)[nH]c(-c3cc(S(=O)(=O)N4CCN(C)CC4)ccc3OCC)nc12: “mean serum uric acid” 6.84 mg/dL (human patients on drug, serum or plasma; dose not given, main analysis, matching 1:20; relative to: off-drug patients, 5.94 mg/dL).
CC(C)C1CCC(N2CCC(N3C(=O)C(=O)c4ccccc43)CC2)CC1 (stereo not shown) — result for “urine flow rate”: “increased” (conscious Sprague-Dawley rat; intravenous bolus, 100 nmol/kg).
